Measurements pooled from the literature.
A part holds a random share of what one study measured.

Series 1
Target: Centromere-binding protein 1, full length, N-terminal tag (CBF1, Saccharomyces cerevisiae, UniProt P17106, residues 1-351)
UniProt P17106, sequence (whole entry, looked up): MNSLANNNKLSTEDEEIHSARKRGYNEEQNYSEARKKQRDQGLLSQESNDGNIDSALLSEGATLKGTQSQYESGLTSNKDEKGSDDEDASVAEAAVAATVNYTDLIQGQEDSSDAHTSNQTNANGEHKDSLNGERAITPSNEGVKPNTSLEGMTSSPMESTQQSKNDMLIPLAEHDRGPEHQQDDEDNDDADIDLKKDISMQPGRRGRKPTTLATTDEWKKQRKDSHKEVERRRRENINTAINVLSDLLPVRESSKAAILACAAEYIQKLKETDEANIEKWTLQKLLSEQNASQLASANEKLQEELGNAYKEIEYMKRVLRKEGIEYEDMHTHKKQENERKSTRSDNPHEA
Technique: protein-binding microarray
Form: double-stranded DNA, one strand shown
Matrix: in vitro
Tested at: 0.8 µM
Setting: whole 60-bp probe, no competitor
Reading: higher = stronger binding
Endpoint: fluorescence intensity
Constant ends, left off below: … GTCTTGATTCGCTTGACGCTGCTG
GAATATATATCAACTCACCTGGTATAGGGATCATAG: 577 a.u.
CTAAGCACTCGCTATTTCGTGACAACGTTCCAGTTC: 540 a.u.
CTAAAATGCCAAGAATGCGTGACGGTTTCCCTCTTC: 545 a.u.
GAACAAACAAACCACGTGATGGTCTACACGTTGTAG: 12300 a.u.
CTATATTATCGCGCAGGTGAGAGAGTCCTGGAATTC: 583 a.u.
CTAAGGCGATGCTAACGTGTGTTTACTGTTTTATTC: 490 a.u.
TGTACGAAGCTATATCACACTAGTATAGTAGTTAGG: 498 a.u.
CTATCCAGCATGAATCAGCAGAACAACTTTTATTTC: 527 a.u.

Series 2
Target: Histone acetyltransferase KAT6A, winged helix 2, GST fusion (KAT6A, Homo sapiens, UniProt Q92794, residues 85-181)
Technique: protein binding microarray
Form: double-stranded DNA, one strand shown
Matrix: in vitro
Tested at: not given
Setting: 8-mer, flanks averaged, mean of 2 arrays, mostly near background
Reference: not given
Reading: higher = stronger binding
Endpoint: E-score
Construct (chain): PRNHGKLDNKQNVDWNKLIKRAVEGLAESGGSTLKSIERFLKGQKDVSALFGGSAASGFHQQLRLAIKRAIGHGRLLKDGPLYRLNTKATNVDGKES
CGAGAACG: 0.0548
TAGTAACA: 0.065
CAGTGATC: 0.0639
AGGTCGTC: 0.0492
AGCTGTTG: 0.0519
GACCTGAC: 0.11
AGATCTTA: -0.0481

Series 3
Target: Sal-like protein 4, full length isoform A (SALL4, Homo sapiens, UniProt Q9UJQ4, residues 1-1053)
UniProt Q9UJQ4, sequence (whole entry, looked up): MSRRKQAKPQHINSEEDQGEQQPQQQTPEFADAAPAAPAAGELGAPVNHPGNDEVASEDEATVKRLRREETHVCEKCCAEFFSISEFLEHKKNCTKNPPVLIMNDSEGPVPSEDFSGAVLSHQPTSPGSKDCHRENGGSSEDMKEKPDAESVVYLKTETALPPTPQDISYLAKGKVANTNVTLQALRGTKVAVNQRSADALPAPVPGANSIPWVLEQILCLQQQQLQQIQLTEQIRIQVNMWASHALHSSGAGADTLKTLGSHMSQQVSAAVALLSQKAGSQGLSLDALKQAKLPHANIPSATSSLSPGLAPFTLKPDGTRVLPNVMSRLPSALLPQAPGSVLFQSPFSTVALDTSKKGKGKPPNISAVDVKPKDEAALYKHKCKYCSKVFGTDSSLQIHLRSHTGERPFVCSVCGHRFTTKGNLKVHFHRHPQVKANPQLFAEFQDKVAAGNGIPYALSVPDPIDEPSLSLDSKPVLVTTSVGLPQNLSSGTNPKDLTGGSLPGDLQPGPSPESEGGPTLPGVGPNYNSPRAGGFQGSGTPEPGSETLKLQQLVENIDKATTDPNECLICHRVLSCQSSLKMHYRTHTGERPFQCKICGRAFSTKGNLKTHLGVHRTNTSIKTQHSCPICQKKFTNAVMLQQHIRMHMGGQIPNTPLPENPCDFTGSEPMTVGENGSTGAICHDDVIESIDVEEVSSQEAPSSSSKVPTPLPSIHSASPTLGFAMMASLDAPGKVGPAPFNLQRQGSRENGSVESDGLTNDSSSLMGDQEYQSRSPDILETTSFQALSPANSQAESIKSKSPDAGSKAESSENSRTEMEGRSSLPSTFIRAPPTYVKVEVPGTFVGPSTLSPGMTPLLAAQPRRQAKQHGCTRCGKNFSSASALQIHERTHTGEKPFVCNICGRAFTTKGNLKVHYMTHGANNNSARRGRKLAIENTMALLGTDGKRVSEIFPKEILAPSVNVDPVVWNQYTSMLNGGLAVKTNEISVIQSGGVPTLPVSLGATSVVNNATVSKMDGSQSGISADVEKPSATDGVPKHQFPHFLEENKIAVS
Technique: universal PBM
Form: double-stranded DNA, one strand shown
Matrix: in vitro
Tested at: 600 nM
Setting: 8-mer, flanks averaged, mean of replicates
Reading: higher = stronger binding
Endpoint: E-score
GAGTTAAA: 0.00404
TACGGAGA: -0.00778
ATCTAAGC: -0.0253
ACAGGTAT: 0.0676
CGTATAAC: 0.144
AGCACGAT: -0.00017

Mixed results
PhoQ, residues 284 288 289 292 302 303 TNSAEL  fold induction (PhoP, residues 12 14 15 18 19 NHTVL (Escherichia coli, UniProt P23836); Sort-seq, measured: YFP reporter; E. coli; PhoQ-PhoP variant library, together with: 10 µM Mg2+; reference: high Mg2+ state, higher = stronger signaling): 1.05

Repeated from above (series 2):
TAGTAACA: 0.065
CAGTGATC: 0.0639
AGGTCGTC: 0.0492
AGCTGTTG: 0.0519
